Published values gathered from unrelated publications.
Each line is one published result; not all experiments were run side by side.

Cn1cc(-c2cnc3ccc(NC(=O)Nc4ccc(F)c(Br)c4)cc3n2)cn1 — inhibition (TBK1; KiNativ, item: TBK1 Lys2 peptide; PANC-1 cell lysate; 10 µM): 4%
C[C@@H]1COCCN1c1cc([C@]2(O)C[C@H]3CC[C@@H](C2)O3)c2cnn(-c3cc[nH]n3)c2n1 — inhibition (kinases outside PIKK family; kinase binding, KiNativ profiling; Jurkat cell lysate; 0.3 µM): < 35%
CCN(CC)CCNC(=O)c1c(C)[nH]c(/C=C2\C(=O)Nc3ccc(F)cc32)c1C — inhibition (PKG1β (human); kinase activity, inhibitor; 0.3 µM): 17%
CCN1CCC(CCNCc2cc3cc(OC)c(OC)c(OC)c3nc2SCc2ccccc2)CC1 — inhibition (electron transport chain; proton pumping, ACMA quenching; Pseudomonas aeruginosa inverted membrane vesicles; 32 µg/mL, added: NADH): 82%
Cc1ccc(C(=O)OCC(=O)[C@@H](CC(=O)O)NC(=O)[C@@H](Cc2ccccc2)NC(=O)C[C@@H](CC(C)C)NC(=O)[C@@H](CC(=O)O)NC(=O)[C@@H](Cc2cccnc2)NC(=O)CCCCCNC(=O)CCCCCNC(=O)CCCc2cn(CCF)nn2)s1 — inhibition (caspase; enzyme activity; HeLa cells; 75 µM, 4 h, added: staurosporine 1 µM): no effect
CCCc1cc(C)[nH]c(=O)c1CNC(=O)c1cc(-c2ccc(N3CCN(C(C)C)CC3)nc2)cc2c1cnn2C(C)C — inhibition (NET, histamine H3, sigma1, sigma2; radioligand binding, PDSP panel; 10000 nM): > 50%
COc1cc2cc(CNCCN3CCN(C)CC3)c(SCc3ccccc3)nc2c(OC)c1OC — inhibition (electron transport chain; proton pumping, ACMA quenching; Pseudomonas aeruginosa inverted membrane vesicles; 32 µg/mL, added: NADH): 81%
CNC(=O)c1cc(Oc2ccc(NC(=O)Nc3ccc(Cl)c(C(F)(F)F)c3)cc2)ccn1 — inhibition (PKG1β (human); kinase activity, inhibitor; 10 µM): 6%
c1ccc(CSc2nc3ccccc3cc2CNCc2ccc(N3CCCCC3)cc2)cc1 — inhibition (electron transport chain; proton pumping, ACMA quenching; Pseudomonas aeruginosa inverted membrane vesicles; 2 µg/mL, added: NADH): 20%
Cc1ccc(Nc2nccc(N(C)c3ccc4c(C)n(C)nc4c3)n2)cc1S(N)(=O)=O — inhibition (PKG1β (human); kinase activity, inhibitor; 10 µM): 26%

Some of these lines once more:
COc1cc2cc(CNCCN3CCN(C)CC3)c(SCc3ccccc3)nc2c(OC)c1OC — inhibition (electron transport chain; proton pumping, ACMA quenching; Pseudomonas aeruginosa inverted membrane vesicles; 32 µg/mL, added: NADH): 81%
